Assay results from different studies.
Lines come from different studies, so protocols differ.
UniProt P49759, sequence (whole entry, looked up): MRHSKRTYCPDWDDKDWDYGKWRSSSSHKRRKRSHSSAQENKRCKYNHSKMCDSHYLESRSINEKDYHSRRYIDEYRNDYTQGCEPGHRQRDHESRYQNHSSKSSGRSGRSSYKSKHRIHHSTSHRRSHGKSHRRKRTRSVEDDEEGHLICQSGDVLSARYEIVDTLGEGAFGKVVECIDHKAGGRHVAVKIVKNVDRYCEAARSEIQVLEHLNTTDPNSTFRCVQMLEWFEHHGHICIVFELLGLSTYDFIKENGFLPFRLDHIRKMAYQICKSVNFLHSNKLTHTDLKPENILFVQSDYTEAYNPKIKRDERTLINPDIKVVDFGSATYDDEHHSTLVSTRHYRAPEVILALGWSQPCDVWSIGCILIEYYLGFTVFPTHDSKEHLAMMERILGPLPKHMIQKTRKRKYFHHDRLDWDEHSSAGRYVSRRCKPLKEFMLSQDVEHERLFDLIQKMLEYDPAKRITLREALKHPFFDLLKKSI
UniProt P20794, sequence (whole entry, looked up): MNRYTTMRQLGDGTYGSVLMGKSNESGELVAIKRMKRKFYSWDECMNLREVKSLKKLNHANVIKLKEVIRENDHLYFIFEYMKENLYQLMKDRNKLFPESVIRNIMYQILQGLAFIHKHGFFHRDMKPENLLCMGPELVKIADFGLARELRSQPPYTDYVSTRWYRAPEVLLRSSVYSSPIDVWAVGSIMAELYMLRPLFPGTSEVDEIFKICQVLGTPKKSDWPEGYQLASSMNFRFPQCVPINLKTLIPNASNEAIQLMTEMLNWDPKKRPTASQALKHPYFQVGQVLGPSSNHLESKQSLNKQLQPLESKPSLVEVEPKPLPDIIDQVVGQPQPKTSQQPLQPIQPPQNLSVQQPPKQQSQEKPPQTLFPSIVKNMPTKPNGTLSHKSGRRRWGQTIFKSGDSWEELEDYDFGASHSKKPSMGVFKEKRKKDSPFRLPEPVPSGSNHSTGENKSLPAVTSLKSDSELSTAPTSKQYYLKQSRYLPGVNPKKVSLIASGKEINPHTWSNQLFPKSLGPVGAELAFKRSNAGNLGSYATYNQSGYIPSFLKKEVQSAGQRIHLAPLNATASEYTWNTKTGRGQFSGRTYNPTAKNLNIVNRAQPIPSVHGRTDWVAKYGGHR
UniProt P04629, sequence (whole entry, looked up): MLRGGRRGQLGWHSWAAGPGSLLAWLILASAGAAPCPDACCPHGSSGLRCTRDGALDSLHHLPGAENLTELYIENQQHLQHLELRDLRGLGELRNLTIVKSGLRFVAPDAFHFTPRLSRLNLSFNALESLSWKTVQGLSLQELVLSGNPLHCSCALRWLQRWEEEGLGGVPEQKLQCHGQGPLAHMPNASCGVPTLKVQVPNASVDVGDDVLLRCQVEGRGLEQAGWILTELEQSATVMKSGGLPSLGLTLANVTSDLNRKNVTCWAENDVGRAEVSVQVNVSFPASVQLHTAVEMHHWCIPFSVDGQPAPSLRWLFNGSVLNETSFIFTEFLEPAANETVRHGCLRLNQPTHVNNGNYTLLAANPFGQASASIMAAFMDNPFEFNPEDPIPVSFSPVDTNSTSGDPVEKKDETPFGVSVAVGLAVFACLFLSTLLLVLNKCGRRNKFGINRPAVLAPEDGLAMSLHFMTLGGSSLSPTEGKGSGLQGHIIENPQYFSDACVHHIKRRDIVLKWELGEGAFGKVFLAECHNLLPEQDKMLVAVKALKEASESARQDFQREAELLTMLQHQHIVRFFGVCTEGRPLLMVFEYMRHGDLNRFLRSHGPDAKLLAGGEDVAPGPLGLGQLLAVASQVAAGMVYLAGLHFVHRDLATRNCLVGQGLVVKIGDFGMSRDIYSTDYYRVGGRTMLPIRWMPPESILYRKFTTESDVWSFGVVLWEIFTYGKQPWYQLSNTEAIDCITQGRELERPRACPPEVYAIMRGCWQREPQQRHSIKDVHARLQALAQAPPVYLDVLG

Structure (SMILES) | tested on | test | test system | setting | quantity | result
CC(C)(Nc1nc(-c2ccccn2)nc2ccccc12)c1ccccn1 | – | – | female BALB/c mouse, plasma | intravenous, 1 mg/kg, 4 h | concentration | 41 ng/mL
O=c1nc(N2CCN(CC3CCCCC3)CC2)sc2c([N+](=O)[O-])cc(C(F)(F)F)cc12 | – | – | CD-1 mouse, plasma | oral, 100 mg/kg, 1 h | concentration | 2210 ng/mL
COc1cccc(OC)c1-c1cc(C(=O)NC2(C(=O)O)C3CC4CC(C3)CC2C4)nn1-c1ccc(C(=O)N(C)CCCN(C)CCCN(C)C(=O)CN2CCN(CC(=O)[O-])CCN(CC(=O)[O-])CCN(CC(=O)[O-])CC2)cc1C(C)C.[177Lu+3] (stereo not drawn) | HT-29 tumour model | – | host not given, muscle | intravenous, 4 h, tumour-bearing | tracer uptake | 0.5 %ID/g
NCc1cc2c(cc1F)C(=O)N(C1CCC(=O)NC1=O)C2 (stereo not drawn) | – | – | male cynomolgus monkey, plasma | oral, 0.3 mg/kg, 6 h | concentration | 0.31 ng/mL
C=CC(=O)N1CCC(COCC(=O)N2CCN(c3nc(-c4cnc(N)nc4C(F)F)nc(N4CCOC[C@@H]4C)n3)CC2)CC1 | NTRK1 (Homo sapiens, UniProt P04629) | binding, competition with immobilised ligand | – | 1 µM | remaining binding | 59%
O=C1CCC(N2Cc3cc(CO)c(F)cc3C2=O)C(=O)N1 (stereo not drawn) | – | – | male CD-1 mouse, plasma | intravenous, 1 mg/kg, 30 min | concentration | 149 ng/mL
Cc1noc(C)c1Cn1cc(N2C(=O)CN(Cc3cccc(O)c3)C2=O)cn1 | – | – | male Sprague-Dawley rat, plasma | oral, 100 mg/kg, 2 h | concentration | 50.5 ng/mL
Nc1ccn([C@@H]2O[C@H](CO)[C@@H](O)C2(F)F)c(=O)n1 | HEK293 | cell growth or viability, MTT | – | 1.25 µg/mL, 24 h | viability | 68.9%
CNc1ncc2c(/C=C/C(=O)N3CCC(OC)CC3)nn(Cc3cccc(C(F)(F)F)c3)c2n1 | CLK1 (Homo sapiens, UniProt P49759) | enzyme activity, inhibitor, radiometric | – | 1 µM | remaining activity | 88%
C/C(=N\c1ccc(O)cc1)c1cc2ccccc2n1C | – | – | male Sprague-Dawley rat, plasma | intravenous, 5 mg/kg, 24 h, single dose | concentration | 9.6 ng/mL
COc1cc(-c2cncc3c2CN(C)Cc2cc(N4CCNCC4)ccc2-3)cc(OC)c1OC | MAK (Homo sapiens, UniProt P20794) | enzyme activity, inhibitor | – | 1 µM | remaining activity | 109%
CCOC(=O)c1cc(Cl)cc(NC(=O)c2sc(Cl)cc2S(=O)(=O)N(C)c2ccc(OCC)c(OC)c2)c1 | – | – | male C57BL/6 mouse, brain | intraperitoneal, 10 mg/kg, 2 h | concentration | 5.73 ng/g
O=C1CC[C@H](N2Cc3cc(N4CCN(CC5CCN(c6ccc([C@@H]7c8ccc(O)cc8CC[C@@H]7c7ccccc7)cc6)CC5)CC4)ccc3C2=O)C(=O)N1 | – | – | male Sprague-Dawley rat, plasma | oral, 20 mg/kg, fasted | AUC(0-inf) | 6140 ng·h/mL
COc1cccc(-c2n[nH]c(SCc3ccccn3)n2)c1OC | – | – | female Sprague-Dawley rat, plasma | oral, 10 mg/kg, 15 min, single dose | concentration | 14900 ng/mL
CCOC(=O)[C@@]12C[C@@H]1[C@@H](n1ccc3c(NC)nc(C#Cc4ccc(Cl)s4)nc31)[C@H](O)[C@@H]2O | – | – | male Sprague-Dawley rat, plasma | oral, 3 mg/kg, 4 h | concentration | 13 ng/mL
CN(C)CC#Cc1ccc2[nH]c3c(c2c1)-c1nc(N)ncc1CCC3 | – | – | male CD-1 mouse, brain | intraperitoneal, 30 mg/kg, 1 h | concentration | 459 ng/g
COc1ccc2c(=O)n(C)c(-c3ccccc3)nc2c1 | – | – | male Sprague-Dawley rat, lung | oral, 30 mg/kg, 15 min | concentration | 1.39 ng/mL
CCc1cc(-c2noc(-c3cc(OC)nc(C4CCCC4)c3)n2)cc(C)c1OC[C@@H](O)CO | – | – | Wistar rat, plasma | oral, 3 mg/kg, 6 h, single dose | concentration | 174 ng/mL

For quick reference, copied from above:
Structure (SMILES) | tested on | test | test system | setting | quantity | result
CNc1ncc2c(/C=C/C(=O)N3CCC(OC)CC3)nn(Cc3cccc(C(F)(F)F)c3)c2n1 | CLK1 (Homo sapiens, UniProt P49759) | enzyme activity, inhibitor, radiometric | – | 1 µM | remaining activity | 88%
C/C(=N\c1ccc(O)cc1)c1cc2ccccc2n1C | – | – | male Sprague-Dawley rat, plasma | intravenous, 5 mg/kg, 24 h, single dose | concentration | 9.6 ng/mL
COc1cc(-c2cncc3c2CN(C)Cc2cc(N4CCNCC4)ccc2-3)cc(OC)c1OC | MAK (Homo sapiens, UniProt P20794) | enzyme activity, inhibitor | – | 1 µM | remaining activity | 109%
